Assay results collected from several papers.
Values joined by “and” are separate records of one study, mostly repeats; a detail may differ.
Chain of UniProt O00311 (whole entry, looked up): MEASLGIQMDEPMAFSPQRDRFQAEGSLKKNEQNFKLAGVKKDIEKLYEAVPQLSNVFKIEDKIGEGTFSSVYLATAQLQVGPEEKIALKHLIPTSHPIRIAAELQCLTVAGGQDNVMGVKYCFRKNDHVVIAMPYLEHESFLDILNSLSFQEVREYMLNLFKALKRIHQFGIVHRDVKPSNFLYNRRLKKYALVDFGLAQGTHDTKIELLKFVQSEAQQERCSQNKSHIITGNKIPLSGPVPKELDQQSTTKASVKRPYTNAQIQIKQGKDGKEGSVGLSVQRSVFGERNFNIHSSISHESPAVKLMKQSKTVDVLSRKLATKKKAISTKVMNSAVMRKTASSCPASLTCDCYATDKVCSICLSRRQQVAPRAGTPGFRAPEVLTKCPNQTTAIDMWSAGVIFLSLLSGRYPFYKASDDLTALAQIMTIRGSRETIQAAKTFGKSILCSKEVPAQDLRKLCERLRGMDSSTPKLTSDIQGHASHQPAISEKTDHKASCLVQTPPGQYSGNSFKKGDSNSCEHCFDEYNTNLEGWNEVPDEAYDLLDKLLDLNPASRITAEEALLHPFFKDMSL

The AUC(0-inf) of `CCC[C@@](N)(CO)CCc1ccc(OCCCCCC(C)C)cc1` is reported as 21.9 µM·h (dog; oral, 15 mg/kg).
With `C[C@H]1CN(c2n[nH]c3nc(N[C@H]4CC[C@H](NS(=O)(=O)CCC(F)(F)F)CC4)ncc23)CCO1` the relative abundance was 1.17 (CDC7 (Homo sapiens, UniProt O00311); inhibitor, Kinobeads competition profiling; 20 µM; baseline: vehicle).
With `CC[C@H](C)[C@H](NC(=O)[C@H](CC(C)C)NC(=O)[C@H](Cc1c[nH]c2ccccc12)NC(=O)[C@H](CCC(N)=O)NC(=O)[C@@H](NC(=O)[C@H](Cc1ccccc1)NC(=O)[C@H](C)NC(=O)[C@H](CCCCNC(=O)COCCOCCNC(=O)COCCOCCNC(=O)CC[C@H](NC(=O)CCCCCCCCCCCCCCCCCCC(=O)O)C(=O)O)NC(=O)[C@H](CCC(N)=O)NC(=O)[C@H](C)NC(=O)[C@@H](NC(=O)[C@H](CCCCN)NC(=O)[C@H](CC(=O)O)NC(=O)[C@H](CC(C)C)NC(=O)C(C)(C)NC(=O)[C@@H](NC(=O)[C@H](CO)NC(=O)[C@H](Cc1ccc(O)cc1)NC(=O)[C@H](CC(=O)O)NC(=O)[C@H](CO)NC(=O)[C@@H](NC(=O)[C@H](Cc1ccccc1)NC(=O)[C@@H](NC(=O)CNC(=O)[C@H](CCC(=O)O)NC(=O)C(C)(C)NC(=O)[C@@H](N)Cc1ccc(O)cc1)[C@@H](C)O)[C@@H](C)O)[C@@H](C)CC)[C@@H](C)CC)C(C)C)C(=O)N[C@@H](C)C(=O)NCC(=O)NCC(=O)N1CCC[C@H]1C(=O)N[C@@H](CO)C(=O)N[C@@H](CO)C(=O)NCC(=O)N[C@@H](C)C(=O)N1CCC[C@H]1C(=O)N1CCC[C@H]1C(=O)N1CCC[C@H]1C(=O)N[C@@H](CO)C(N)=O` the peak-to-trough ratio was 2.07 (human, plasma; subcutaneous, 10 mg group, week 8, geometric mean; baseline: peak over trough concentration).
With `CC(C)C[C@H](NC(=O)[C@H](CCCCN)NC(=O)OCC1c2ccccc2-c2ccccc21)C(=O)N[C@H](C(=O)N[C@@H](Cc1ccccc1)C(=O)N[C@@H](Cc1ccccc1)C(=O)N[C@@H](CCCCN)C(=O)NCC(=O)N[C@@H](Cc1ccccc1)C(=O)N[C@@H](C)C(=O)N[C@@H](Cc1c[nH]c2ccccc12)C(=O)N[C@@H](CC(N)=O)C(=O)N[C@H](C(=O)N[C@H]1CSSC[C@@H](C(=O)N[C@@H](Cc2c[nH]cn2)C(=O)N[C@@H](CCCNC(=N)N)C(=O)N[C@@H](CCCNC(=N)N)C(=O)N[C@@H](C)C(=O)N[C@@H](CC(N)=O)C(N)=O)NC(=O)[C@H](C(C)C)NC(=O)[C@H](CCCNC(=N)N)NC(=O)[C@H](C(C)C)NC(=O)CNC(=O)[C@H](CC(N)=O)NC(=O)[C@H](CCCNC(=N)N)NC(=O)[C@H](Cc2ccc(O)cc2)NC(=O)[C@H](C(C)C)NC1=O)C(C)C)C(C)C` the remaining peptide was 61.5% and 58.6% and 56.7% (HPLC; mouse mammary gland homogenate; 2560 µM, 12.00 h, 37 °C, 50 mg/mL tissue).
Under “gastrointestinal disorder TEAE”, `Cn1c(-c2ccc(C(N)=O)cc2F)nnc1C(C)(C)Oc1c(F)cc(Cl)cc1F` is recorded as 0% (human; oral, 30 mg, single ascending dose).
For `CC(C)N(CCc1c[nH]c2cccc(OC(=O)CCCC(=O)O)c12)C(C)C.Cl`, “volume of distribution” read 8.61 L (male beagle dog, plasma; intravenous, 1 mg/kg).
`C[C@@H]1OC(=O)NN=C1c1ccc(-c2ccc(F)cc2)c(C(F)(F)F)c1`: “patients with TEAE” 50% (phase I trial, item: alkaline phosphatase increased; human patients; 20 mg load, 1 mg daily, worst grade 1).
`CNCCN(C)c1nc(NC(C)c2ccccc2)c2ccccc2n1` (centres unmarked) gave a maximum response of -4.01% (Vero-E6; CellTiter-Glo ATP; 72 h, retest 8-point duplicates; baseline: DMSO 0%, hyamine -100%, more negative, more toxic).
`CN1CC[C@@H](c2c(O)cc(O)c3c(=O)cc(-c4ccc(C(F)(F)F)cc4Cl)oc23)[C@@H]1CO` gave a dyspnea incidence of 15% (human, relapsed/refractory hematologic malignancies; oral, dose not given).
With `COc1cc2c(Oc3ccc4[nH]c(C)cc4c3F)ccnc2cc1OCC1(N)CC1` the Hyperuricaemia incidence was 0% (paediatric refractory sarcoma patients; 10 mg).
Under “drug-related Fatigue incidence”, `C[C@]1(CO)Cc2ncn(-c3ccc(C#N)c(Cl)c3)c2C(=O)O1` is recorded as 0% (healthy humans; 10 mg, fasted).
`O=C(c1ccc(F)c(F)c1Nc1ccc(I)cc1F)N1CC(O)([C@@H]2CCCCN2)C1`: “related AE leading withdrawal” 7% (patients aged 6 to sample A years; oral, dose not given).
`CCN1[C@@H](C(=O)NC23CCC(C(=O)O)(CC2)CC3)[C@H](c2cccc(Cl)c2F)[C@]2(C(=O)Nc3cc(Cl)ccc32)C12CCCCC2` gave a Thrombocytopenia incidence of 100% (patients with advanced solid tumours; oral, 200 mg).
`CC(=O)c1c(C)c2cnc(Nc3ccc(C4CCN(CCS(C)(=O)=O)CC4)cn3)nc2n(C2CCCC2)c1=O` has an AUC(0-inf) of 403 ng·h/mL (human, plasma; oral, 25 mg once daily, day 1, single dose).
`CO[C@H]1C[C@@H]2CC[C@@H](C)[C@@](O)(O2)C(=O)C(=O)N2CCCC[C@H]2C(=O)O[C@H]([C@H](C)C[C@@H]2CC[C@@H](OC(=O)NCCOCCOCCOCCOCCOCCOCCOCCOCCC(=O)N3CCc4cc(Cn5nc(-c6ccc7oc(N)nc7c6)c6c(N)ncnc65)ccc4C3)[C@H](OC)C2)C[C@@H](O)[C@H](C)/C=C(\C)[C@@H](O)[C@@H](OC)C(=O)[C@H](C)C[C@H](C)/C=C/C=C/C=C/1C`: “incidence of nausea TEAE” 0% (patients with advanced solid tumours; intravenous, 10 mg weekly, grade ≥3).
For `CCN(CC)CCCNC(=O)CSc1c2c(nc3cc(Cl)ccc13)CCCC2`, the maximum response was 0.6% (Vero-E6; CellTiter-Glo ATP; 72 h, second round 5-point; baseline: DMSO 0%, hyamine -100%, more negative, more toxic).
`C[C@@H](O)[C@@H]1NC(=O)CNC(=O)[C@H](Cc2c[nH]cn2)NC(=O)[C@H](Cc2c[nH]c3ccccc23)NC(=O)[C@H](CC(N)=O)NC(=O)CNC(=O)C[C@@H](C(=O)N[C@@H](Cc2c[nH]c3ccccc23)C(=O)N[C@@H](Cc2ccccc2)C(=O)N[C@@H](Cc2ccccc2)C(=O)N[C@@H](CC(N)=O)C(=O)N[C@@H](Cc2ccc(O)cc2)C(=O)N[C@@H](Cc2ccc(O)cc2)C(=O)N[C@@H](Cc2c[nH]c3ccccc23)C(=O)O)NC(=O)[C@@H]2CCCN2C(=O)[C@H](CO)NC1=O` gave a Vss of 0.491 L/kg (male CD-1 mouse; intravenous, 3 mg/kg).
